{"data": "Results pooled from the literature", "note": "Each line is one published result; not all experiments were run side by side. ± gives the spread as reported."}
{"Structure (SMILES)": "N#Cc1ccc(C(c2ccc(C#N)cc2)n2cncn2)cc1", "test system": "human patients, tumour extracellular fluid", "setting": "5 mg daily", "measurement": "steady-state concentration", "value": "0.27 ± 0.03 µmol/L"}
{"Structure (SMILES)": "COc1cc2c(Nc3ccc(Br)cc3F)ncnc2cc1OCC1CCN(C)CC1", "test system": "human patients, plasma", "setting": "oral, 65 mg/m^2, day 42", "measurement": "steady-state trough concentration", "value": "684 ± 315 ng/mL"}
{"Structure (SMILES)": "Cn1cncc1[C@@](N)(c1ccc(Cl)cc1)c1ccc2c(c1)c(-c1cccc(Cl)c1)cc(=O)n2C", "test system": "human, plasma", "setting": "300 mg/m^2/dose, second cohort, median", "measurement": "steady-state plasma concentration", "value": "570 ng/mL"}
{"Structure (SMILES)": "O=C(COc1ccc(Cl)cc1)NC12CC(c3nnc([C@H]4C[C@@H](OC(F)(F)F)C4)o3)(C1)C2", "test system": "healthy human both sexes, plasma", "setting": "oral, 100 mg once daily, day 14, mean", "measurement": "steady-state Ctrough", "value": "3.73 µM"}
{"Structure (SMILES)": "OC[C@H]1O[C@@H](c2ccc(Cl)c(Cc3ccc(O[C@H]4CCOC4)cc3)c2)[C@H](O)[C@@H](O)[C@@H]1O", "test system": "human, plasma", "setting": "oral, dose not given, multiple doses, with: evogliptin", "measurement": "steady-state Cmax", "value": "0.473 ± 0.117 µg/mL"}
{"Structure (SMILES)": "CN(CC#N)C(=O)C[C@H](Nc1nc2ccccc2[nH]1)c1cccc(C(F)(F)F)c1", "test system": "human", "setting": "intravenous infusion, 3 mg/kg, 1 mg/mL formulation", "measurement": "steady-state volume of distribution", "value": "54.7 ± 12.2 L"}
{"Structure (SMILES)": "Cc1cc(C)c(CNC(=O)c2cc(Cl)c3c(c2C)O[C@@](C)([C@H]2CC[C@H](N(C)C)CC2)O3)c(=O)[nH]1", "test system": "human, plasma", "setting": "oral, dose not given, cycle 1 day 15, mean", "measurement": "steady-state apparent clearance (unbound)", "value": "621 L/h"}
{"Structure (SMILES)": "CN(C)C(=O)c1cc2cnc(Nc3ccc(N4CCNCC4)cn3)nc2n1C1CCCC1", "test system": "human, advanced solid tumours, plasma", "setting": "oral, 800 mg, day 14, expansion cohort, with: gemcitabine 1000 mg/m2", "measurement": "steady-state clearance", "value": "317 mL/min"}
{"note": "Some of these lines once more:"}
{"Structure (SMILES)": "O=C(COc1ccc(Cl)cc1)NC12CC(c3nnc([C@H]4C[C@@H](OC(F)(F)F)C4)o3)(C1)C2", "test system": "healthy human both sexes, plasma", "setting": "oral, 100 mg once daily, day 14, mean", "measurement": "steady-state Ctrough", "value": "3.73 µM"}
